Published values collected from several papers.
Protocols differ between the studies behind these lines. Values joined by “and” are separate records of one study, mostly repeats; a detail may differ. Numbers after ± are the reported error.

CCCCn1cc(C(=O)O)c(=O)c2cc(F)c(Nc3ccccc3OC)c([N+](=O)[O-])c21  IC50 (A375-S2; cell growth, SRB; 72 h): 74.6 ± 9.14 µg/mL
N#C/C(=C\c1cn(-c2ccccc2)nc1-c1ccc(Cl)cc1Cl)c1nc2ccccc2[nH]1  IC50 (MRC5; cell growth or viability, ATP luminescence; 72 h): > 100 µM
CCCCn1cc(C(=O)O)c(=O)c2cc(F)c(N)c([N+](=O)[O-])c21  IC50 (MCF7; cell growth, SRB; 72 h): 171 ± 15.8 µg/mL
CCCCn1cc(C(=O)O)c(=O)c2cc(F)c3c(nnn3-c3ccc(OC)cc3)c21  IC50 (A375-S2; cell growth, SRB; 72 h): 39.4 ± 7.4 µg/mL
O=C(/C=C/c1ccccc1)Oc1ccc2c(c1)O/C(=C\C=C\c1ccccc1)C2=O  IC50 (HEK-293T; cell growth or viability, MTT; 72 h): 37.1 µM
CC(=O)Oc1ccc(/C=C/C(=O)Nc2nc(=O)n([C@@H]3O[C@H](C)[C@@H](OC(C)=O)[C@H]3OC(C)=O)cc2F)c(OC(C)=O)c1  IC50 (NHDF; MTT; 72 h, 10% FBS): 116 ± 2.71 µM
COc1ccc(-c2nn(-c3ccccc3)cc2/C=C(\C#N)c2nc3ccccc3[nH]2)cc1  IC50 (MRC5; cell growth or viability, ATP luminescence; 72 h): > 100 µM
CC(=O)Nc1ccn(C2OC(COC(C)=O)C3CC=CCC32)c(=O)n1 (mixture of isomers)  IC50 (PHA-stimulated human PBM cells, uninfected; cytotoxicity; 6 days): > 100 µM
N#C/C(=C\c1cn(-c2ccccc2)nc1-c1ccc([N+](=O)[O-])cc1)c1nc2ccccc2[nH]1  IC50 (MRC5; cell growth or viability, ATP luminescence; 72 h): > 100 µM
CC(=O)OCC1OC(n2cc(C)c(=O)[nH]c2=O)C2CC=CCC12 (mixture of isomers)  IC50 (PHA-stimulated human PBM cells, uninfected; cytotoxicity; 6 days): > 100 µM
CC(C)=CCc1c2c(c(O)c3c(=O)c(-c4ccc(O)cc4O)coc13)C=CC(C)(C)O2  IC50 (NHDF; cell growth or viability, MTT; 24 h): 30.9 µM
CC(=O)Oc1ccc(/C=C/C(=O)Nc2nc(=O)n([C@@H]3O[C@H](C)[C@@H](OC(C)=O)[C@H]3OC(C)=O)cc2F)cc1  IC50 (NHDF; viability, MTT; 72 h): 96.5 ± 5.79 µM
CC(=O)OCC1OC(n2cnc3c(Cl)nc(Cl)nc32)C2CC=CCC12 (mixture of isomers)  IC50 (PHA-stimulated human PBM cells, uninfected; cytotoxicity; 6 days): 43.1 µM
COc1cc(OC)c(-c2coc3c(CC=C(C)C)c(OC)cc(O)c3c2=O)cc1OC  IC50 (NHDF; cell growth or viability, MTT; 24 h): > 100 µM
CC1OC(Oc2c(-c3ccc(O)cc3)oc3cc(O)cc(O)c3c2=O)C(OC(=O)C=Cc2ccc(O)cc2)C(O)C1OC(=O)C=Cc1ccc(O)cc1 (stereo not shown)  IC50 (LPC-H12 mouse liver cancer; cell growth; 48 h): > 10 µM
CC(=O)Oc1ccc(/C=C/C(=O)Nc2nc(=O)n([C@@H]3O[C@H](C)[C@@H](OC(C)=O)[C@H]3OC(C)=O)cc2F)cc1OC(C)=O  IC50 (NHDF; MTT; 72 h, 10% FBS): 121 ± 4.32 µM
CCCCn1cc(C(=O)O)c(=O)c2cc(F)c(Nc3cc(OC)c(OC)c(OC)c3)c([N+](=O)[O-])c21  IC50 (A375-S2; cell growth, SRB; 72 h): 27.5 ± 3.37 µg/mL
CC(=O)O[C@@H]1[C@H](OC(C)=O)[C@@H](C)O[C@H]1n1cc(F)c(NC(=O)/C=C/c2ccc(O)c(O)c2)nc1=O  IC50 (NHDF; MTT; 72 h, 10% FBS): 163 ± 4.33 µM
CCCCn1cc(C(=O)O)c(=O)c2cc(F)c(Nc3cccc(OC)c3)c([N+](=O)[O-])c21  IC50 (A375-S2; cell growth or viability, SRB): 406 µM
Nc1nc(Cl)nc2c1ncn2C1OC(CO)C2CC=CCC21 (mixture of isomers)  IC50 (PHA-stimulated human PBM cells, uninfected; cytotoxicity; 6 days): > 100 µM
CCCCn1cc(C(=O)O)c(=O)c2cc(F)c3c(nnn3-c3ccccc3OC)c21  IC50 (A375-S2; cell growth or viability, SRB): 30.6 µM and 30.8 µM and < 50 µM
COc1cc(-c2coc3cc(O)cc(O)c3c2=O)ccc1O  IC50 (NHDF; cell growth or viability, MTT; 24 h): > 100 µM

Some of these lines once more:
CCCCn1cc(C(=O)O)c(=O)c2cc(F)c3c(nnn3-c3ccccc3OC)c21  IC50 (A375-S2; cell growth or viability, SRB): 30.6 µM and 30.8 µM and < 50 µM
CC1OC(Oc2c(-c3ccc(O)cc3)oc3cc(O)cc(O)c3c2=O)C(OC(=O)C=Cc2ccc(O)cc2)C(O)C1OC(=O)C=Cc1ccc(O)cc1 (stereo not shown)  IC50 (LPC-H12 mouse liver cancer; cell growth; 48 h): > 10 µM
N#C/C(=C\c1cn(-c2ccccc2)nc1-c1ccc([N+](=O)[O-])cc1)c1nc2ccccc2[nH]1  IC50 (MRC5; cell growth or viability, ATP luminescence; 72 h): > 100 µM
